Measurements gathered from unrelated publications.
Protocols differ between the studies behind these lines. Values joined by “and” are separate records of one study, mostly repeats; a detail may differ. Numbers after ± are the reported error.

| SMILES | cell line | test | setting | scale | endpoint | result |
| --- | --- | --- | --- | --- | --- | --- |
| O=C(C[Se]C(=O)c1cccs1)Nc1cccc(C(F)(F)F)c1 | NCI60 melanoma subpanel | cell growth | 10 µM, 48 h, one-dose |  | mean growth percent | -84% |
| CC[C@H](C)[C@H](NC(=O)[C@H](C)NC(=O)CNC(=O)[C@H](Cc1ccccc1)NC(=O)[C@H](CC(N)=O)NC(=O)[C@H](CC(N)=O)NC(=O)[C@H](CO[C@@H]1O[C@H](CO)[C@@H](O)[C@H](O)[C@H]1NC(C)=O)NC(=O)[C@H](CO)NC(=O)[C@H](Cc1c[nH]cn1)NC(=O)[C@@H](NC(=O)[C@H](CC(C)C)NC(=O)[C@H](Cc1ccccc1)NC(=O)[C@H](CC(N)=O)NC(=O)[C@H](C)NC(=O)[C@@H](N)CC(C)C)C(C)C)C(=O)N[C@@H](CC(C)C)C(N)=O | INS-1 | MTT | 10 equivalents to hIAPP, 24 h, added: hIAPP 1 µM |  | viability | 77.8% and 80.5% |
| C[C@@H]1O[C@H]2O[C@@H]3C4(O)C(=O)c5cccc(O)c5C(=O)C4(O)O[C@]3(C)[C@]21O (some centres unmarked) | A549 and Vero | MTT |  | relative to: CC50 Vero over EC50 A549 | selectivity index | 0.57 |
| CC(C)(C)C(=O)OCOP(=O)(OCOC(=O)C(C)(C)C)C1CCCN(O)C1=O (centres unmarked) | CAKI-1 |  |  |  | log TGI | > -4 log M |
| CC1CCC2C(C)C(OC(=O)CCC(=O)N3CCC(Nc4ccc(S(=O)(=O)NC(=O)c5ccc(N6CCN(CC7=C(c8ccc(Cl)cc8)CC(C)(C)CC7)CC6)cc5Oc5cnc6[nH]ccc6c5)cc4[N+](=O)[O-])CC3)OC3OC4(C)CCC1C32OO4 (centres unmarked) | K562 | annexin V/PI flow cytometry, measured: annexin V+/PI- | 3.2 µM, 24 h |  | early apoptotic cells | 5.2% |
| CC(=O)NCSC[C@H](NC(=O)[C@@H]1CCCN1C(=O)[C@H](C)NC(=O)[C@@H](NC(=O)CNC(=O)[C@@H](NC(=O)[C@H](Cc1c[nH]c2ccccc12)NC(=O)[C@H](C)NC(=O)CNC(=O)[C@H](CO)NC(=O)[C@H](C)NC(=O)[C@@H]1CCCN1C(=O)[C@H](Cc1c[nH]c2ccccc12)NC(=O)[C@H](C)NC(=O)[C@H](C)NC(=O)[C@@H](N)Cc1ccc(O)cc1)[C@@H](C)O)[C@@H](C)O)C(=O)N[C@@H](CO)C(=O)N[C@@H](C)C(=O)NCC(=O)N[C@H](C(=O)NCCOCCOCCOCCOCCOCCOCCOCCOCCOCCOCCOCCOCCC(=O)N[C@@H](CS)C(N)=O)[C@@H](C)O | PC-3 prostate cancer | phage binding |  | relative to: targeting over control phage | selectivity ratio | 12 ± 2.4 |
| COc1ccccc1-c1ccncc1C(=O)Nc1nnc(OCc2ccc(Cl)cc2)s1 | RPE-1 BRCA1 WT parental |  | 0.125 µM, run 2 | relative to: untreated | colony survival | 89.5% |
| CSCC[C@H](N)C(=O)N[C@@H](C)C(=O)N[C@@H](Cc1c[nH]c2ccccc12)C(=O)N[C@@H](Cc1c[nH]cn1)C(=O)N[C@@H](CC(=O)O)C(=O)N[C@@H](CC(=O)O)C(=O)N[C@@H](CCC(=O)O)C(=O)N[C@@H](CCC(=O)O)C(=O)N[C@@H](Cc1ccccc1)C(=O)N[C@@H](C)C(=O)N[C@@H](CCCNC(=N)N)C(=O)N[C@@H](CCCNC(=N)N)C(=O)N[C@@H](CCCNC(=N)N)C(=O)N[C@@H](CCCNC(=N)N)C(=O)NCCCCCC(=O)NCCCCC(NC(=O)CCCCCNC(=O)[C@H](CCCNC(=N)N)NC(=O)[C@H](CCCNC(=N)N)NC(=O)[C@H](CCCNC(=N)N)NC(=O)[C@H](CCCNC(=N)N)NC(=O)[C@H](C)NC(=O)[C@H](Cc1ccccc1)NC(=O)[C@H](CCC(=O)O)NC(=O)[C@H](CCC(=O)O)NC(=O)[C@H](CC(=O)O)NC(=O)[C@H](CC(=O)O)NC(=O)[C@H](Cc1c[nH]cn1)NC(=O)[C@H](Cc1c[nH]c2ccccc12)NC(=O)[C@H](C)NC(=O)[C@@H](N)CCSC)C(=O)NCCCCC(NC(=O)C(CCCCNC(=O)CCCCCNC(=O)[C@H](CCCNC(=N)N)NC(=O)[C@H](CCCNC(=N)N)NC(=O)[C@H](CCCNC(=N)N)NC(=O)[C@H](CCCNC(=N)N)NC(=O)[C@H](C)NC(=O)[C@H](Cc1ccccc1)NC(=O)[C@H](CCC(=O)O)NC(=O)[C@H](CCC(=O)O)NC(=O)[C@H](CC(=O)O)NC(=O)[C@H](CC(=O)O)NC(=O)[C@H](Cc1c[nH]cn1)NC(=O)[C@H](Cc1c[nH]c2ccccc12)NC(=O)[C@H](C)NC(=O)[C@@H](N)CCSC)NC(=O)CCCCCNC(=O)[C@H](CCCNC(=N)N)NC(=O)[C@H](CCCNC(=N)N)NC(=O)[C@H](CCCNC(=N)N)NC(=O)[C@H](CCCNC(=N)N)NC(=O)[C@H](C)NC(=O)[C@H](Cc1ccccc1)NC(=O)[C@H](CCC(=O)O)NC(=O)[C@H](CCC(=O)O)NC(=O)[C@H](CC(=O)O)NC(=O)[C@H](CC(=O)O)NC(=O)[C@H](Cc1c[nH]cn1)NC(=O)[C@H](Cc1c[nH]c2ccccc12)NC(=O)[C@H](C)NC(=O)[C@@H](N)CCSC)C(N)=O (some centres unmarked) | RAW264.7 |  | 3.0 µM, 5 days | relative to: control | osteoclastogenesis | 23.4% |
| O=C(C[Se]C(=O)c1ccccc1Nc1ccccc1)Nc1cccc(C(F)(F)F)c1 | NCI60 leukaemia subpanel | NCI60 five-dose screen |  |  | CC50 | 9.73 µM |
| CSCC[C@H](NC(=O)CNC(=O)[C@H](CCSC)NC(=O)[C@H](CS)NC(=O)[C@@H](N)CS)C(=O)N[C@@H](CS)C(=O)NCC(=O)N[C@@H](CCCCN)C(=O)O | RAW264.7 | Western blot | concentration not given, 6 h pretreatment, added: LPS 30 min |  | p-ERK/ERK ratio | 0.66 ± 0.03 |
| NC(=S)N/N=C/c1ccc(OCc2ccccc2)cc1 | IMR-32 | measured: GPX3 | 500 µg/mL, 24 h | higher = more activity | glutathione peroxidase activity (OD450) | 0.181 a.u. |
| CC(C)CC(O)(CC(C)C)c1cn(C(=O)N2CCCC2)nn1 | mouse T cells | N-terminal labelling proteomics, measured: Scye1 N-terminal peptide | 0.001 µM, 6 h | relative to: DMSO | SILAC ratio per peptide | 0.81 |
| CC(C)[C@H](NC(=O)[C@H](CCCNC(=N)N)NC(=O)[C@@H]1CCCN1C(=O)[C@@H](NC(=O)[C@H](C)NC(=O)[C@H](Cc1ccc(O)cc1)NC(=O)[C@H](CCC(N)=O)NC(=O)[C@H](CCCCN)NC(=O)[C@H](CCCNC(=N)N)NC(=O)[C@@H]1CCCN1C(=O)[C@H](CCC(=O)O)NC(=O)[C@@H](NC(=O)[C@H](C)N)[C@@H](C)O)[C@@H](C)O)C(=O)N[C@@H](Cc1ccccc1)C(=O)N[C@@H](Cc1c[nH]c2ccccc12)C(=O)N[C@H](C(=O)N[C@@H](CC(=O)O)C(=O)N[C@@H](C)C(=O)N1CCC[C@H]1C(=O)NCC(=O)NCCOCCOCCOCCOCCOCCOCCOCCOCCOCCOCCOCCOCCC(=O)N[C@@H](CS)C(N)=O)[C@@H](C)O | HCC95 | phage binding |  | relative to: targeting over control phage | selectivity ratio | 0.66 ± 0.22 |
| CC(C)C[C@@H](/C=C/[C@H](Cc1ccccc1)C(=O)N1CCC[C@H]1C(=O)N[C@H](C(=O)NC1CC(C)(C)N([O])C(C)(C)C1)C(C)C)NC(=O)OC(C)(C)C | PANC-1 | protection from ferroptosis, PrestoBlue | 24 h, added: erastin 10 µM |  | EC50 | 0.367 µM |
| Cc1cc(Oc2nc(N3CC[C@@H](c4ccncc4)C3)ncc2F)[nH]n1 | brain cancer cell lines | cell proliferation | average over lines |  | IC50 | 77.6 µM |
| O=C(C[Se]C(=O)c1ccc2ccccc2n1)Nc1cccc(C(F)(F)F)c1 | NCI60 melanoma subpanel | cytotoxicity, inhibitor | five-dose |  | CC50 | 8.22 µM |
| O=C(O)c1ccc(-c2nc(-c3ccccc3Cl)c3sccn23)cc1 | K562 | erythroid differentiation, flow cytometry | 0.01 mM, 24 h |  | CD235a-positive cells | 94.6% and 94.8% and 94.4% |
| O=C(C[Se]C(=O)c1ccco1)Nc1cccc(C(F)(F)F)c1 | NCI60 leukaemia subpanel | NCI60 five-dose screen |  |  | CC50 | 100 µM |
| CC[C@H](C)[C@H](NC(=O)[C@H](Cc1c[nH]c2ccccc12)NC(=O)[C@H](CCCCN)NC(=O)[C@H](CO)NC(=O)[C@H](CC(C)C)NC(=O)[C@H](Cc1ccccc1)NC(=O)[C@@H](NC(=O)[C@H](CCCCN)NC(=O)[C@H](CC(C)C)NC(=O)[C@H](CC(C)C)NC(=O)[C@H](CCCCN)NC(=O)[C@@H]1CCCN1)[C@@H](C)O)C(=O)NCC(=O)N[C@@H](CS)C(N)=O | human red blood cells |  | pH 5.5 | relative to: Triton X-100 | EC50 | > 100 µM |
| CC(C)C[C@H](NC(=O)[C@H](CC(=O)O)NC(=O)CNC(=O)[C@@H](N)CCCNC(=N)N)C(=O)N[C@@H](C)C(=O)N[C@H](C(=O)N[C@@H](CC(C)C)C(=O)N[C@@H](CCCNC(=N)N)C(=O)N[C@@H](CCC(N)=O)C(=O)N[C@@H](CC(C)C)C(=O)N[C@@H](C)C(=O)N[C@@H](CCC(N)=O)C(=O)N[C@@H](CCC(=O)O)C(=O)N[C@@H](CC(=O)O)C(=O)NCC(=O)N[C@H](C(=O)N[C@H](C(=O)NCC(=O)N[C@H](C(=O)N[C@@H](CCCNC(=N)N)C(=O)NCCOCCOCCOCCOCCOCCOCCOCCOCCOCCOCCOCCOCCC(=O)N[C@@H](CS)C(N)=O)C(C)C)C(C)C)C(C)C)[C@@H](C)O | Calu-3 | phage binding |  | relative to: targeting over control phage | selectivity ratio | 34 ± 13 |
| O=C(C[Se]C(=O)c1ccccc1)Nc1cccc(C(F)(F)F)c1 | NCI60 melanoma subpanel | total growth inhibition, inhibitor | five-dose |  | mean TGI | 5.22 µM |
| NC(=O)N/N=C/c1ccc(OCc2ccccc2)cc1 | IMR-32 |  | 400 µg/mL, 24 h | higher = more activity | catalase activity (OD450) | 0.31 a.u. |
| CSCC[C@H](NC(=O)[C@@H](NC(=O)[C@H](CCC(N)=O)NC(=O)[C@H](CO)NC(=O)[C@@H](N)C(C)C)[C@@H](C)O)C(=O)N[C@@H](CCCNC(=N)N)C(=O)N[C@@H](CCC(N)=O)C(=O)N[C@H](C(=O)N[C@@H](C)C(=O)N[C@H](C(=O)N1CCC[C@H]1C(=O)N[C@@H](CC(C)C)C(=O)N[C@@H](CC(C)C)C(=O)N[C@@H](Cc1c[nH]c2ccccc12)C(=O)N[C@@H](Cc1ccccc1)C(=O)N[C@@H](Cc1c[nH]c2ccccc12)C(=O)N[C@H](C(=O)NCC(=O)N[C@@H](CO)C(=O)N[C@@H](CC(C)C)C(=O)NCCOCCOCCOCCOCCOCCOCCOCCOCCOCCOCCOCCOCCC(=O)N[C@@H](CS)C(N)=O)[C@@H](C)O)C(C)C)[C@@H](C)O | MCF7 breast cancer | cell binding, phage binding, measured: output/input phage | 10 min, 37 °C | relative to: control phage | selectivity ratio | 1.5 ± 1.1 |
